Results from different studies.
Protocols differ between the studies behind these lines.
HDAC8: Histone deacetylase 8 (HDAC8, Homo sapiens, UniProt Q9BY41)
Sequence of UniProt Q9BY41 (whole entry, looked up): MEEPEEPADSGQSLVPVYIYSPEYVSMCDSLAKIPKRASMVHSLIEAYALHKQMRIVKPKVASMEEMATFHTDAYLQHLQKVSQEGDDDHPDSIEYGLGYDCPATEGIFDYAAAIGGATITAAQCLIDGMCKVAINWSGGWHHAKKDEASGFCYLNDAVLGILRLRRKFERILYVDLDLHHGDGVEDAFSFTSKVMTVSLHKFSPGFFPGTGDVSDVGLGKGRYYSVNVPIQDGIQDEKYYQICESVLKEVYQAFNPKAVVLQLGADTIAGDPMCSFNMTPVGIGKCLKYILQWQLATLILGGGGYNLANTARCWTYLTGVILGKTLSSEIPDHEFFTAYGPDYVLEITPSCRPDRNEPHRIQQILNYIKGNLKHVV
PTPN2: Tyrosine-protein phosphatase non-receptor type 2 (PTPN2, Homo sapiens, UniProt P17706)
Sequence of UniProt P17706 (whole entry, looked up): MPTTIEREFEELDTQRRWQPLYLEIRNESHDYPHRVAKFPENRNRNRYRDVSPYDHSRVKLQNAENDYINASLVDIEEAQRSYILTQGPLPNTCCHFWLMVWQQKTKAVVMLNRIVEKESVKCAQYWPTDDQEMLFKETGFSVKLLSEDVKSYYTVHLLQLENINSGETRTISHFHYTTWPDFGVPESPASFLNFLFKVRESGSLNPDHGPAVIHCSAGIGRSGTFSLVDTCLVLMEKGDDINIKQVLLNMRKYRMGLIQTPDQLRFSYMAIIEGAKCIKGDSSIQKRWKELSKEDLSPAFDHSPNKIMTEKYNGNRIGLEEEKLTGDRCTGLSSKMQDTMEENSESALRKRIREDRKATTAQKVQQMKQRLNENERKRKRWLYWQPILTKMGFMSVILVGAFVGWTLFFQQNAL
Sequence of UniProt P00740 (whole entry, looked up): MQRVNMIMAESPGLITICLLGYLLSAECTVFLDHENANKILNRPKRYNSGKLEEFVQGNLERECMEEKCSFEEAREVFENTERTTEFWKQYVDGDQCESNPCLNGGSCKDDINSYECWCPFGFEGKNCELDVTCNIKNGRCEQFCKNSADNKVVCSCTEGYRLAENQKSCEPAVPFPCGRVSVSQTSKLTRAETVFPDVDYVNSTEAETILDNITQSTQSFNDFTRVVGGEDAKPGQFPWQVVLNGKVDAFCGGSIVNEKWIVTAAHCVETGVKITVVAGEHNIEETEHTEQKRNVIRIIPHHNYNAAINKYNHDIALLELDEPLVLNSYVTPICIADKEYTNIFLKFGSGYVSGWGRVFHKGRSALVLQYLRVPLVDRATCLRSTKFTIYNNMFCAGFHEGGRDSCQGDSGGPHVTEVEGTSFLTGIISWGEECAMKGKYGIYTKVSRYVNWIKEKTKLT
Sequence of UniProt O14965 (whole entry, looked up): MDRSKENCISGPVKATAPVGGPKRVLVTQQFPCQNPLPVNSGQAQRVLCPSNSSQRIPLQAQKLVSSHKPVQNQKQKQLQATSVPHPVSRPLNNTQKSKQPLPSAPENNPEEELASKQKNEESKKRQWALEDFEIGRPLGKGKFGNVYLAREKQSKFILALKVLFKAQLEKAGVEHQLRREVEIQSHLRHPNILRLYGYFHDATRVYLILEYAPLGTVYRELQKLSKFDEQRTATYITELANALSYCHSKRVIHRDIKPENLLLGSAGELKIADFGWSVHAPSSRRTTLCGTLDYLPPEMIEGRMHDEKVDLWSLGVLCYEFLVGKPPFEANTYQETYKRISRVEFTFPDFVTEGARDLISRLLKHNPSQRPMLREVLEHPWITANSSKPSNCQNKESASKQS
Sequence of UniProt P35462 (whole entry, looked up): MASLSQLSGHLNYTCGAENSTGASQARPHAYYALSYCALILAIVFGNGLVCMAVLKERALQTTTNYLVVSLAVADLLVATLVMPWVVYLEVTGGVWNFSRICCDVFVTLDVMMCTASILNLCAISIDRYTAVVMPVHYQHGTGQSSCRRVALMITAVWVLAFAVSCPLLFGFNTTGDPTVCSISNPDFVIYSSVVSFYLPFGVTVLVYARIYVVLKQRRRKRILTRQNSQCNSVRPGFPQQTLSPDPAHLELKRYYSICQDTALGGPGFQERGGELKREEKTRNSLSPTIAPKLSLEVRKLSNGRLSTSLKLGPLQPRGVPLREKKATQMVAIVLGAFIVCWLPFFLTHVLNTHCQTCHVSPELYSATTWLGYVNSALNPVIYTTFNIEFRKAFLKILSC
Sequence of UniProt P08588 (whole entry, looked up): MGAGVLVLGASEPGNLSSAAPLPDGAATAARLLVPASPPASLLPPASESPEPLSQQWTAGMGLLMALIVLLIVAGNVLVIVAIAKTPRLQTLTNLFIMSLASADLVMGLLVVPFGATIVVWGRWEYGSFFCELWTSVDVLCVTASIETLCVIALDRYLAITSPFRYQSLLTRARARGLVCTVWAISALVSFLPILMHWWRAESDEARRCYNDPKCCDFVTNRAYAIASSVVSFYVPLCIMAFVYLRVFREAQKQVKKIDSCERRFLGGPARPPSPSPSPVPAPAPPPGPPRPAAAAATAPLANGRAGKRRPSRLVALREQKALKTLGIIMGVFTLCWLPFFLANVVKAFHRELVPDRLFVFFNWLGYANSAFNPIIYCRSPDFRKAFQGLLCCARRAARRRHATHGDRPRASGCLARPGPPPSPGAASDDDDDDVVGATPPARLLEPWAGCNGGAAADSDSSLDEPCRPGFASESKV
Sequence of UniProt Q9NZJ5 (whole entry, looked up): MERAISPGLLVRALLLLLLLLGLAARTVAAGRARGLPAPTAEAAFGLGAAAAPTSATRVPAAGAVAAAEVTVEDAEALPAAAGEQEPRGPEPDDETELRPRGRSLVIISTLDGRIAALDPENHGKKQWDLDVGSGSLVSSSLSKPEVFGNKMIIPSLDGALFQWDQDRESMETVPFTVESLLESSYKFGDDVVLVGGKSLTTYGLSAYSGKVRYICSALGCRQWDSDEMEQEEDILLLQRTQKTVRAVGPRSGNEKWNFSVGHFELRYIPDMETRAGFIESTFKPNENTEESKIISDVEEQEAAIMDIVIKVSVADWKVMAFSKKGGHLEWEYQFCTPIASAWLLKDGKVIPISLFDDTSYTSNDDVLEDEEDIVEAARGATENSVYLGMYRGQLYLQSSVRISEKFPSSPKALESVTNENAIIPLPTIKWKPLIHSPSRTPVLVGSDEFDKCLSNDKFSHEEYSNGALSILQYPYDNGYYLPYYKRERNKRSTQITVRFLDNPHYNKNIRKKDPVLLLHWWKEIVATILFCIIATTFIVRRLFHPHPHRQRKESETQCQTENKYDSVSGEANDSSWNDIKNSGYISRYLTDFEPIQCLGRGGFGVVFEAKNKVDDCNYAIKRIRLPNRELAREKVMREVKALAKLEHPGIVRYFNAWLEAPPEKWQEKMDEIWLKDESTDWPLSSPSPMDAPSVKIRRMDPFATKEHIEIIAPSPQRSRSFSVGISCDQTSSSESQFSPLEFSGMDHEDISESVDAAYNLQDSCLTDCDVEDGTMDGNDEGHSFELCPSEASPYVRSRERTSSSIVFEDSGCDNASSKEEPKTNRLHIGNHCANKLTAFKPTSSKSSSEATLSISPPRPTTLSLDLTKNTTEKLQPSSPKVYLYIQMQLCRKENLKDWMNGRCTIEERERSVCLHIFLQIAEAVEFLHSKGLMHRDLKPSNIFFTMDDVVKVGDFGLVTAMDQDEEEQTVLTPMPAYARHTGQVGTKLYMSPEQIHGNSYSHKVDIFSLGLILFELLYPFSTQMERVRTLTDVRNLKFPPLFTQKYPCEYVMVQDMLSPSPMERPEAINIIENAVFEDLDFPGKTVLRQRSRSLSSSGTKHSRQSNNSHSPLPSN

| SMILES | target | assay | system | conditions | scale | selectivity ratio |
| --- | --- | --- | --- | --- | --- | --- |
| CCn1nc2c(c1Nc1nc(-c3ccc(-n4cnc(C)c4)c(OC)n3)cs1)CCCC2 | Presenilin-1, in γ-secretase complex (PSEN1, Homo sapiens, UniProt P49768) | Notch substrate cleavage | HeLa cell membranes |  | relative to: Notch over Aβ42 site IC50 | 200 to 400 |
| O=C(CCCCCCN(Cc1ccc2c(c1)OCO2)Cc1ccc2c(c1)OCO2)NO | HDAC8 | inhibitor |  |  | relative to: IC50 HDAC8 over HDAC1 | 8.4 |
| O=C(Nc1ccc(C(=O)Nc2ccc(C(=O)Nc3ccc(S(=O)(=O)O)c4cc(S(=O)(=O)O)cc(S(=O)(=O)O)c34)cc2)cc1)Nc1ccc(C(=O)Nc2ccc(C(=O)Nc3ccc(S(=O)(=O)O)c4cc(S(=O)(=O)O)cc(S(=O)(=O)O)c34)cc2)cc1 | Coagulation factor IX (F9, Homo sapiens, UniProt P00740) |  |  |  | relative to: HNE over FIXa | > 1590 fold |
| O=C(CCCCCCNCc1ccc(-c2ccccc2)s1)NO | HDAC8 | inhibitor |  |  | relative to: IC50 HDAC8 over HDAC1 | 11 |
| CCCN(CC(=O)N(CCC)CC(=O)N(CCC)CC(=O)N(CCC)CC(=O)N(CC(=O)N(CCC)CC(=O)N(CCC)CC(=O)N(CCC)CC(=O)N(CCC)CC(=O)N(CC(=O)N(CCC)CC(=O)N(CCC)CC(=O)N(CCC)CC(=O)N(CCC)CC(=O)N(CC(N)=O)Cc1cn(CCCNC(=O)CCCOc2cccc(-c3nc4ccc(-c5nc6ccc(N7CCN(C)CC7)cc6[nH]5)cc4[nH]3)c2)nn1)Cc1cn(CCCNC(=O)CCCOc2cccc(-c3nc4ccc(-c5nc6ccc(N7CCN(C)CC7)cc6[nH]5)cc4[nH]3)c2)nn1)Cc1cn(CCCNC(=O)CCCOc2cccc(-c3nc4ccc(-c5nc6ccc(N7CCN(C)CC7)cc6[nH]5)cc4[nH]3)c2)nn1)C(=O)CNCc1cn(CCCNC(=O)CCCOc2cccc(-c3nc4ccc(-c5nc6ccc(N7CCN(C)CC7)cc6[nH]5)cc4[nH]3)c2)nn1 | r(CUG)109 RNA | binding, fluorescence |  |  | relative to: r(CUG) over herring sperm DNA | 13 fold |
| COc1ccc(CNCCCCCCC(=O)NO)cc1OC | HDAC8 | inhibitor |  |  | relative to: IC50 HDAC8 over HDAC1 | 8.6 |
| N[C@@H](CCC(=O)N[C@@H](CS[Se]Cc1ccc(-c2cccc(C(O)c3ccc(Cl)c(Cl)c3)c2)cc1)C(=O)NCC(=O)O)C(=O)O (stereo partly shown) | PTPN2 | enzyme activity |  | together with: pNPP, GSH 1 mM | relative to: IC50 PTPN2 over STEP | 27 |
| Cc1cc(CNCCCCCCC(=O)NO)ccc1F | HDAC8 | inhibitor |  |  | relative to: IC50 HDAC8 over HDAC1 | 20 |
| CC(CO)(CO)NCc1ccc(-c2cc(Cl)ccc2Cl)o1 | D(3) dopamine receptor (DRD3, Homo sapiens, UniProt P35462) | binding, radioligand competition |  |  | relative to: Ki D2 over Ki D3 | 6 fold |
| Cc1cc(NC(=O)[C@H](O)c2cc(F)cc(F)c2)ccc1-c1cnc(N)c(C(=O)NC(C)C)c1 | Eukaryotic translation initiation factor 2-alpha kinase 3 (EIF2AK3, Homo sapiens, UniProt Q9NZJ5) | FRET kinase |  |  | relative to: GCN2, HRI, PKR over PERK | > 2000 fold |
| O=C(c1ccc(F)cc1)C1CCN(C2Cc3c(O)cccc3CC2O)CC1 (racemic) | VAChT and sigma-2 receptor |  |  |  | relative to: sigma-2 Ki over VAChT Ki | 398 |
| CCN1CCN(Cc2ccc(Nc3ncc4c(n3)N(C)c3ccccc3C(=O)N4C)cc2C(F)(F)F)CC1 | Aurora kinase A (AURKA, Homo sapiens, UniProt O14965) |  |  |  | relative to: IC50 Aurora B over IC50 Aurora A | 12 fold |
| CN(C)CCNC(=O)c1cccc2c(NCCCCc3c(N)nc(N)nc3N)c3ccccc3nc12 | human cardiac troponin T pre-mRNA 18-nt fragment | binding, ITC |  |  | relative to: Kd RNA A over Kd RNA I | 93 |
| O=C(CCCCCCNCc1ccc([N+](=O)[O-])cc1)NO | HDAC8 | inhibitor |  |  | relative to: IC50 HDAC8 over HDAC1 | 9.5 |
| CCCCCCCCCCCCCCCCC1=C[C@@H](C(=O)O)[C@H]2C(=O)C(C(=O)OC)=C(CCCCCCCCCCCCCCCC)[C@H]2[C@H]1C(=O)OC | PTPN2 | inhibitor, pNPP hydrolysis |  |  | relative to: TCPTP over PTP1B, higher = TCPTP-selective | 4 |
| O=C(CCCCCCNCc1ccc2c(c1)OCO2)NO | HDAC8 | inhibitor |  |  | relative to: IC50 HDAC8 over HDAC1 | 2.1 |
| CC(C)[C@H](NC(=O)[C@H](CC(=O)O)NC(=O)CNC(=O)[C@@H](N)CCCNC(=N)N)C(=O)O | Integrin alpha-IIb/beta-3, ADP-activated (Homo sapiens, UniProt P05106+P08514) | fibrinogen binding |  |  | relative to: IC50 endothelial cells over platelets | 20 fold |
| COc1ccc(C(=O)Nc2cc(-c3ccc([125I])cc3)no2)cc1 | Alpha-synuclein, fibrils (SNCA, Homo sapiens, UniProt P37840) | radioligand saturation binding |  |  | relative to: α-synuclein over Aβ42 affinity | ~5.2 |
| COc1ccc(/N=N/c2ccc(OC[C@@H](O)CNC(C)C)cc2)cc1 | Beta-1 adrenergic receptor (ADRB1, Homo sapiens, UniProt P08588) | cAMP production, EPAC FRET biosensor |  | dark | relative to: beta1 over beta2 | 188 |

Excerpt of the above:
| SMILES | target | assay | system | conditions | scale | selectivity ratio |
| --- | --- | --- | --- | --- | --- | --- |
| COc1ccc(/N=N/c2ccc(OC[C@@H](O)CNC(C)C)cc2)cc1 | Beta-1 adrenergic receptor (ADRB1, Homo sapiens, UniProt P08588) | cAMP production, EPAC FRET biosensor |  | dark | relative to: beta1 over beta2 | 188 |
| O=C(CCCCCCNCc1ccc(-c2ccccc2)s1)NO | HDAC8 | inhibitor |  |  | relative to: IC50 HDAC8 over HDAC1 | 11 |
| CC(CO)(CO)NCc1ccc(-c2cc(Cl)ccc2Cl)o1 | D(3) dopamine receptor (DRD3, Homo sapiens, UniProt P35462) | binding, radioligand competition |  |  | relative to: Ki D2 over Ki D3 | 6 fold |
